Assay results collected from several papers.
Numbers after ± are the reported error.

Cc1cn(-c2cc(NC(=O)c3ccc(C)c(Nc4nccc(-c5cccnc5)n4)c3)cc(C(F)(F)F)c2)cn1
GI50 (KCL-22 KCL22-T315I; 48 h): 2730 ± 1570 nM

COc1ccc(-c2ccc(-c3ccc(C(=N)N)nc3)s2)cc1Cl
GI50 (MDA-MB-231/ATCC; NCI five-dose screen): 1700 nM

Cc1c(C(=O)O)ccc2c3n(nc12)[C@@H]1[C@H](C3)N(CC2CC2)[C@@]2(C(=O)Nc3cc(Cl)ccc32)[C@H]1c1cccc(Cl)c1F
GI50 (JAR (MDM2-amplified); cell growth, alamarBlue; 120 h): 19 nM

C#C[C@@]1(O)[C@@H](CO)O[C@@H](n2ccc3c(N)ncnc32)[C@@H]1O
GI50 (NCI60 panel; cell growth; mean over panel): -5.9 log M

Cc1ccc(C(=O)Nc2ccc(CN3CCN(C)CC3)c(C(F)(F)F)c2)cc1C#Cc1cnc2cccnn12
GI50 (KCL-22 wild type; 48 h): 0.008 ± 0.2 nM

O=C(/C=C/C=C/C=C/C1CCCCC1)NC1=C[C@@](O)(/C=C/C=C/C=C/C(=O)NC2=C(O)CCC2=O)[C@@H]2O[C@@H]2C1=O
GI50 (SK-LU-1; cell growth, CellTiter-Glo; 78 h): 15600 nM

Cn1cncc1C1=CN(c2ncnc3[nH]cnc23)CCS1
GI50 (MDA-MB-231/ATCC): 33900 nM

CC(=O)[C@]1(O)Cc2c(O)c3c(c(O)c2[C@@H](O[C@H]2C[C@H](N)[C@H](O)[C@H](C)O2)C1)C(=O)c1ccccc1C3=O
EC50 (Toxoplasma gondii; parasite growth; HFF, bradyzoite, glutamine-induced): 1320 nM

[Cl-].[Cl-].[Os+2].c1cnc2c(c1)ccc1cccnc12.c1cnc2c(c1)ccc1cccnc12.c1cnc2c(c1)ccc1cccnc12
GI50 (SK-MEL-28; cell growth, SRB; cool white visible light, 1% O2 hypoxia): 119000 nM

O=C(/C=C/c1ccc(O)c(O)c1)OCCc1ccccc1
EC90 (Toxoplasma gondii; parasite growth; HFF, bradyzoite, alkaline-induced): 42600 nM

COc1cc(-c2ccc(-c3ccc(C(=N)N)nc3)s2)cc(OC)c1OC
GI50 (MDA-MB-231/ATCC; NCI five-dose screen): 1850 nM

Excerpt of the above:
O=C(/C=C/C=C/C=C/C1CCCCC1)NC1=C[C@@](O)(/C=C/C=C/C=C/C(=O)NC2=C(O)CCC2=O)[C@@H]2O[C@@H]2C1=O
GI50 (SK-LU-1; cell growth, CellTiter-Glo; 78 h): 15600 nM
